Results pooled from the literature.
Each numbered part is a random draw from the data of one study; scales do not carry over between parts.
Sequence of UniProt P57058 (whole entry, looked up): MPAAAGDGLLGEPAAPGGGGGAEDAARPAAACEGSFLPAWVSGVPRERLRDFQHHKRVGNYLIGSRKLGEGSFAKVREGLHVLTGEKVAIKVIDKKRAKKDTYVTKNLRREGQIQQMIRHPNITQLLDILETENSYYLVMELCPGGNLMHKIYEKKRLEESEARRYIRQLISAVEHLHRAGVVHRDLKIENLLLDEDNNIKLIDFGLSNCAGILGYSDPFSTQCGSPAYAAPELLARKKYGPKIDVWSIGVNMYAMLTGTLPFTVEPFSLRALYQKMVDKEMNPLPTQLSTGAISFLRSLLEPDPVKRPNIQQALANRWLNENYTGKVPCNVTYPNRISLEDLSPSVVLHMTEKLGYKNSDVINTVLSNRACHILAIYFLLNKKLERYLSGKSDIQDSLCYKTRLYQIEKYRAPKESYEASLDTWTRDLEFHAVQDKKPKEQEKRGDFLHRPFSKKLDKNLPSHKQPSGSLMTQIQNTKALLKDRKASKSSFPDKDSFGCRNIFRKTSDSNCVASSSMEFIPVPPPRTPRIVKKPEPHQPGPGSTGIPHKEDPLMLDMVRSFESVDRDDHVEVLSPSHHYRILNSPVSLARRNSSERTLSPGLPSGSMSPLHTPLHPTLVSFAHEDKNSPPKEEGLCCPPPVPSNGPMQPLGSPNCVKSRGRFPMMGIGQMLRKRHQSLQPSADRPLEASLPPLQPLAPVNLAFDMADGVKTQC
Sequence of UniProt Q9C5W9 (whole entry, looked up): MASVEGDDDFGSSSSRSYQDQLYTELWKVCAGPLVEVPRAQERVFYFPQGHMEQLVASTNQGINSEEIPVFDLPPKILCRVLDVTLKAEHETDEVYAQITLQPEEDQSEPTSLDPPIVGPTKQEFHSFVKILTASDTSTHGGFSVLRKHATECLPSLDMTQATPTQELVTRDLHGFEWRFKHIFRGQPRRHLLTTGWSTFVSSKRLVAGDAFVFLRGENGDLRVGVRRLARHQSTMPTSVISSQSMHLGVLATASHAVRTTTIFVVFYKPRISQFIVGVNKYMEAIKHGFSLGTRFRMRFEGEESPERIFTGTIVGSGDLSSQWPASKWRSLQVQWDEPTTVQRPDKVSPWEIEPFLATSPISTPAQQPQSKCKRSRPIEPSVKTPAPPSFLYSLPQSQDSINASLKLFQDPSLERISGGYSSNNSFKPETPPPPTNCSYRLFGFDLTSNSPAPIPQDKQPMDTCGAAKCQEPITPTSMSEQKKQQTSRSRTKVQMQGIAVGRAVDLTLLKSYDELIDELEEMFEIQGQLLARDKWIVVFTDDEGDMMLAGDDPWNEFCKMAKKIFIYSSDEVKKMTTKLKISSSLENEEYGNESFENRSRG
Sequence of UniProt Q9BX84 (whole entry, looked up): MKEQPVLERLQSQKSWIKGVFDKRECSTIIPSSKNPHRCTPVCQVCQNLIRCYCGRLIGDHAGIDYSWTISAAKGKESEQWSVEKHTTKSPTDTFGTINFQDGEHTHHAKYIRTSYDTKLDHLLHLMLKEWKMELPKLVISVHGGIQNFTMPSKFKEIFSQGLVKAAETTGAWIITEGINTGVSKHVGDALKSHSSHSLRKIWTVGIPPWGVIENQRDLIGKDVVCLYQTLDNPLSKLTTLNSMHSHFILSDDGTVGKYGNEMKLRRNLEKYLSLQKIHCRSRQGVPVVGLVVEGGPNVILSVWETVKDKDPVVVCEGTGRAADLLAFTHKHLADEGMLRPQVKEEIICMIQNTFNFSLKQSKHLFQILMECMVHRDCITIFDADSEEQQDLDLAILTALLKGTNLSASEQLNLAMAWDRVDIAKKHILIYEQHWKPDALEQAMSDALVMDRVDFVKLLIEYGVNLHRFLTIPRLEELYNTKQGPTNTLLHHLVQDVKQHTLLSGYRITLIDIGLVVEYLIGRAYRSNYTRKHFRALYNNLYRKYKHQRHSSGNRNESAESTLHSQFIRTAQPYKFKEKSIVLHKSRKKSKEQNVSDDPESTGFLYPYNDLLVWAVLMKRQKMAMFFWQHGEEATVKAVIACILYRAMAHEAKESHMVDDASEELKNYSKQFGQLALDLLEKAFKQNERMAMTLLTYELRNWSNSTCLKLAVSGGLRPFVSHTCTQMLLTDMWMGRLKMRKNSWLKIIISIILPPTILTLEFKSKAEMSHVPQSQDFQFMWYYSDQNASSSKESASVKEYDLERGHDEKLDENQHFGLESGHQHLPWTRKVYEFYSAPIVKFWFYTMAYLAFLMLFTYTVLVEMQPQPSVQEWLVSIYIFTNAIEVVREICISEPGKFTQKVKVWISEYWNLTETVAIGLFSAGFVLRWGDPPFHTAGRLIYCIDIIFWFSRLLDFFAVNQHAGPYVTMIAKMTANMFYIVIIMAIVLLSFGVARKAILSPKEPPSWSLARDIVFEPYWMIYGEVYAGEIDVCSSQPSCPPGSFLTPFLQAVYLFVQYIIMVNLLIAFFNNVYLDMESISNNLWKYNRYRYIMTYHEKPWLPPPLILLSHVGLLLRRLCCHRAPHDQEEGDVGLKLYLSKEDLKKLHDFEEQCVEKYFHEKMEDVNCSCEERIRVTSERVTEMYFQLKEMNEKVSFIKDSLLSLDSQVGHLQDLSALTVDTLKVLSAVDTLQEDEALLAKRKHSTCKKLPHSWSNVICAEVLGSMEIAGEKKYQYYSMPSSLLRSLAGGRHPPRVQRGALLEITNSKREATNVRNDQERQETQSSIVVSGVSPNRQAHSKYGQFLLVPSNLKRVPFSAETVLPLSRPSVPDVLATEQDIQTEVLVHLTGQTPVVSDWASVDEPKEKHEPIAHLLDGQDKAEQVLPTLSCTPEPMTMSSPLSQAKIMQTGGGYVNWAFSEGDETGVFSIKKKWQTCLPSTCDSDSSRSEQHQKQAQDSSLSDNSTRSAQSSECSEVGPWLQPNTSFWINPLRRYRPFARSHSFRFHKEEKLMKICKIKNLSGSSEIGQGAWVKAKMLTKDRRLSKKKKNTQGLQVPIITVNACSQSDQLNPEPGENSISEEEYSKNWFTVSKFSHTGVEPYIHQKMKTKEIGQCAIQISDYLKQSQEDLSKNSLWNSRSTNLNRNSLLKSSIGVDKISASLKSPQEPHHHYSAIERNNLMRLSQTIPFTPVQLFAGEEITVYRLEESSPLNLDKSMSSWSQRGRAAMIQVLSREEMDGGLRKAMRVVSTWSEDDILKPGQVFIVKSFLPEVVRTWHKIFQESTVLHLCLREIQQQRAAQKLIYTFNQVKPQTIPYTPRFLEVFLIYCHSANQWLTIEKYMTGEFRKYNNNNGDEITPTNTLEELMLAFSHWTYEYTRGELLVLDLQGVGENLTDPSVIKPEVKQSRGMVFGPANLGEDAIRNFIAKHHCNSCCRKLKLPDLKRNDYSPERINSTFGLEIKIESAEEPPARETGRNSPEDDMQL
Sequence of UniProt P78368 (whole entry, looked up): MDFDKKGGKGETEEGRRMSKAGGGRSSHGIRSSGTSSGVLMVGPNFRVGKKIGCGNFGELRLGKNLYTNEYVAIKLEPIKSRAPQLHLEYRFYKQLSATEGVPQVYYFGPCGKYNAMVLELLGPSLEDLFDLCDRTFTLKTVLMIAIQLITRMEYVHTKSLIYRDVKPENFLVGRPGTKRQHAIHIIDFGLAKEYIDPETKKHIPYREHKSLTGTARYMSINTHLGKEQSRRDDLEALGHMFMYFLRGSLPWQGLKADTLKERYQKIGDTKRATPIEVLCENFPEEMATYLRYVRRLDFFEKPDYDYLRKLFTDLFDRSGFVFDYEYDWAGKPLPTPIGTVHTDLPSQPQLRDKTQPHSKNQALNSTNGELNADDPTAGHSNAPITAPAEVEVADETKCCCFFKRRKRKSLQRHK
Sequence of UniProt Q9FKM7 (whole entry, looked up): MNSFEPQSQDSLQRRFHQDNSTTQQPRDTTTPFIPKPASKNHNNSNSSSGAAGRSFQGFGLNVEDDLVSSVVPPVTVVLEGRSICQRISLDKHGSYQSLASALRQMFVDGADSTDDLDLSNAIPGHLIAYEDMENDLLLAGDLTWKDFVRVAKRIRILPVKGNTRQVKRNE

Study 1 — technique: RNA Bind-n-Seq; molecule type: RNA; matrix: in vitro; concentration: not given; baseline: input RNA pool; direction: higher = stronger binding
Target: RING finger protein unkempt homolog, zinc fingers 1-6, GST-SBP tag (UNK, Homo sapiens, UniProt Q9C0B0, residues 30-357)
Sequence of UniProt Q9C0B0 (30-357, looked up): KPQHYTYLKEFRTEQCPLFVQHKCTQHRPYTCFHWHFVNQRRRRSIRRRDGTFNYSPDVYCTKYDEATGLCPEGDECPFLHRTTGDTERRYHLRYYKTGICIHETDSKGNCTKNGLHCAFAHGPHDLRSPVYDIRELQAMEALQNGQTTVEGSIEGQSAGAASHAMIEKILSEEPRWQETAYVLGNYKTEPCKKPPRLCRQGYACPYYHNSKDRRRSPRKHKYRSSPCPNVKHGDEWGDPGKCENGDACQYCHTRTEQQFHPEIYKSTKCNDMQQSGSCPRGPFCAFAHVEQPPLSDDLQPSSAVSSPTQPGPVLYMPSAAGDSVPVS
Notes: RNA with constant flanks, human-mouse chimeric sites, ends assumed
Constant ends, left off below: GGGAGUUCUACAGUCCGACGAUC … CAACAGAGGAUUGAGCAUCA
Strand	bound/input enrichment
AAAGAUCUACUGAGGCAAGGCAGCAAAUUUAGGAGAGAUGUAUCAACAAUAUUGAUAGAGUUAGGAUUCCAAAUUAAAAAGAAAACUAAGACAUUAUACAUCAACAAAGCCAAUGUGUGG	3.28 ratio
UAUAUCACCAAUGUUCUACAAAAUCCUGACUUGGCUCUGAGAAUGGCUGUGCGGAACAACUUAGCUGGUGCUGAAGAACUCUUUGCCCGGAAAUUUAAUGCUCUCUUCGCCCAGGGAAAC	0.273 ratio
UCAAGGGGGCACUGCAGAGCCAUGCCUUUCUUGGACAUACAGAAAAAGCUGGGCAUCAGCCUGGACCGGCACUUUAUGUUCCUAAGCGCAGAACAGCCCUAUAAGAACGCCGCUCGGUGC	0.102 ratio
GAAUCCUACUCAGGCGGAUUUUGCAACACCAAGCUCACAGCAGCAGCUCCAUAGUCACAGUAGGGUAGUUUUGGGGCUCUGUGGCCAGGGUUUUAUUCACAUGCAGGUUUUGAAAAUGUA	0.471 ratio
AGAUUCCCUCUCUUAAAACCUCCUCCGAAGUUGGAGUCUCUUACAGAUGCCUCAUCCCCUGUUAGCGUUUUGGUCUGGACCACCCAGCCUUGGACAAUUCCCGCCAACCAGGCAAUUUGC	0.438 ratio
AAAGGCAAAAAGGGCAGCUGUGUCAUUUCAUAAGUAACUCUGGGGGAGGGAAAUUCUGUUCUUUUGUUUUUAGUUUUCCCAAAUGAAGCCAAAGUGUGUGUUGAAGAACUGAGAAAAAAU	0.563 ratio
UCUGGUCACACUCGUGUGUAUGGUGUUUGCUUUGUGGACACUUCACUGGGAAAGUUUUUCAUCGGCCAGUUUUCGGAUGACCGCCACUGUUCCAGAUUUAGGACGCUAGUGGCUCACUAU	0.239 ratio
AAACAUCUGUCUUUAAGCAUUCCAAGCAAUGCUUGGGGGGUGAUCAUUGUUGCCCAUGUGCCUUCUGACUGAGCUUUAAUGCUGUUCCAUGUUACAUCUUUCCUUCACUCCAGAAUUGUU	0.16 ratio

Study 2 — Sequence: B1 (IAA2); technique: two-hybrid; baseline: out of 4 tests; direction: higher = firmer interaction
B1: IAA2 (Arabidopsis thaliana, UniProt P49678); chain MAYEKVNELNLKDTELCLGLPGRTEKIKEEQEVSCVKSNNKRLFEETRDEEESTPPTKTQIVGWPPVRSSRKNNNSVSYVKVSMDGAPYLRKIDLKTYKNYPELLKALENMFKVMIGEYCEREGYKGSGFVPTYEDKDGDWMLVGDVPWDMFSSSCKRLRIMKGSDAPALDSSL
partner	positive tests
IAA17 (Arabidopsis thaliana, UniProt P93830)	4
IAA8 (Arabidopsis thaliana, UniProt Q38826)	4
IAA33 (Arabidopsis thaliana, UniProt Q9FKM7)	3
ARF18 482-602 (Arabidopsis thaliana, UniProt Q9C5W9)	0
ARF8 699-811 (Arabidopsis thaliana, UniProt Q9FGV1)	2
ARF19 948-1086 (Arabidopsis thaliana, UniProt Q8RYC8)	4

Study 3 — technique: competition with immobilised ligand; concentration: 0.1 µM
Structure (SMILES): CS(=O)(=O)N1CCCC(NC(=O)[C@H](CCC2CCCCC2)NC(=O)c2ccc(CNc3ncnc4c3nnn4-c3ccccc3)cc2)C1 (stereo partly shown)
target	assay	remaining binding [%]
NTRK3 (Homo sapiens, UniProt Q16288)	cell-free assay	86
MARK4 (Homo sapiens, UniProt Q96L34)	cell-free assay	71
ALK (Homo sapiens, UniProt Q9UM73, C1156Y)	cell-free assay	100
Ribosomal protein S6 kinase alpha-6, N-terminal kinase domain (RPS6KA6, Homo sapiens, UniProt Q9UK32)	cell-free assay	100
CDK11A (Homo sapiens, UniProt Q9UQ88)	binding	87
CSNK1G2 (Homo sapiens, UniProt P78368)	cell-free assay	82
HUNK (Homo sapiens, UniProt P57058)	cell-free assay	100
MAP4K3 (Homo sapiens, UniProt Q8IVH8)	cell-free assay	75
LATS1 (Homo sapiens, UniProt O95835)	cell-free assay	100
MKNK2 (Homo sapiens, UniProt Q9HBH9)	cell-free assay	100
Tyrosine-protein kinase ABL1, non-phosphorylated (ABL1, Homo sapiens, UniProt P00519, H396P)	cell-free assay	99
STK10 (Homo sapiens, UniProt O94804)	cell-free assay	100
VRK2 (Homo sapiens, UniProt Q86Y07)	cell-free assay	91
LRRK2 (Homo sapiens, UniProt Q5S007, G2019S)	cell-free assay	100
TRPM6 (Homo sapiens, UniProt Q9BX84)	cell-free assay	96

Study 4 — effect on: enzyme activity; mode: inhibitor; concentration: 0.5 µM; baseline: control
Target: Serine/threonine-protein kinase PLK3 (PLK3, Homo sapiens, UniProt Q9H4B4)
Sequence of UniProt Q9H4B4 (whole entry, looked up): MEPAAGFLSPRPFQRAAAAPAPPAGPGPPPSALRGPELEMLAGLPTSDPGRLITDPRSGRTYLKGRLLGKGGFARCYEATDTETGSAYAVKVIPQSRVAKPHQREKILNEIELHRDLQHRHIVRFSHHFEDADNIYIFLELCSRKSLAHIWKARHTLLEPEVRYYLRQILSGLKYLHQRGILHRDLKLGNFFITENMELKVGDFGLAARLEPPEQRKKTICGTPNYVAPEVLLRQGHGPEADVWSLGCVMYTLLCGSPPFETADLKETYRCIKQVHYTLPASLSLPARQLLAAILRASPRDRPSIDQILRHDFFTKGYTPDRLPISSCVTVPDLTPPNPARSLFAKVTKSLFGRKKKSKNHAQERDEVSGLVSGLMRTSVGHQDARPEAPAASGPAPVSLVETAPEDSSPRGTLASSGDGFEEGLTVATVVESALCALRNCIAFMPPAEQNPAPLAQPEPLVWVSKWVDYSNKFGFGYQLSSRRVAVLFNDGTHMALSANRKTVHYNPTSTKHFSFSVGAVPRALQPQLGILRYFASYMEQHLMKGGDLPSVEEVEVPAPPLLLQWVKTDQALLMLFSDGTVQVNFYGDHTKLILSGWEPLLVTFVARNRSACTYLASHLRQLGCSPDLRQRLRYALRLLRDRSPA
SMILES	remaining activity [%]
CCOC(=O)c1c(C)[nH]c(/C=C2\C(=O)Nc3ccccc32)c1C	97.5
CNC(=O)c1cc(Oc2ccc(NC(=O)Nc3ccc(Cl)c(C(F)(F)F)c3)cc2)ccn1	99.3
O=S(=O)(c1cccc2cnccc12)N1CCCNCC1	102
Nc1ncnc2n[nH]c(Nc3ccc(F)cc3)c12	98
NCCNc1ncc(C(N)=O)c(Nc2cccc(C(F)(F)F)c2)n1	98.3
C#Cc1cccc(Nc2ncnc3cc(OCCOC)c(OCCOC)cc23)c1	102
Oc1ccc(-c2nc(-c3ccncc3)c(-c3ccc(F)cc3)[nH]2)cc1	96.2
COc1ccc(C(=O)Nc2sc3c(c2C(N)=O)CCCC3)cc1OC	95
Cc1cccc(-c2[nH]c(C(C)(C)C)nc2-c2ccc3c(c2)OCO3)n1	95.6
COc1cc2nccc(Oc3ccc(NC(=S)NC(=O)c4ccccc4C)cc3)c2cc1OC	92.1
Cn1c2ccccc2c2c3c(c4c5ccccc5n(CCC#N)c4c21)CNC3=O	88.1
CC(C)[C@H](CO)Nc1nc(Nc2cc(N)cc(Cl)c2)c2ncn(C(C)C)c2n1	62.8
CN(C)c1ccc(C=C2C(=O)Nc3ccccc32)cc1	97
OCC(O)CCON=C1C(c2c(O)[nH]c3ccccc23)=Nc2ccccc21 (stereo not shown)	102

Excerpt of the above (study 3):
target	assay	remaining binding [%]
CDK11A (Homo sapiens, UniProt Q9UQ88)	binding	87
CSNK1G2 (Homo sapiens, UniProt P78368)	cell-free assay	82
HUNK (Homo sapiens, UniProt P57058)	cell-free assay	100
MAP4K3 (Homo sapiens, UniProt Q8IVH8)	cell-free assay	75
LATS1 (Homo sapiens, UniProt O95835)	cell-free assay	100
MKNK2 (Homo sapiens, UniProt Q9HBH9)	cell-free assay	100
Tyrosine-protein kinase ABL1, non-phosphorylated (ABL1, Homo sapiens, UniProt P00519, H396P)	cell-free assay	99
